Published values pooled from the literature.
Every numbered part comes from another study and shows a few of its results, in no order. Several values in a cell are separate wells, animals, samples, runs or records. pEC50: −log10 of the molar value.
Chain of UniProt P10721 (whole entry, unmodified, looked up): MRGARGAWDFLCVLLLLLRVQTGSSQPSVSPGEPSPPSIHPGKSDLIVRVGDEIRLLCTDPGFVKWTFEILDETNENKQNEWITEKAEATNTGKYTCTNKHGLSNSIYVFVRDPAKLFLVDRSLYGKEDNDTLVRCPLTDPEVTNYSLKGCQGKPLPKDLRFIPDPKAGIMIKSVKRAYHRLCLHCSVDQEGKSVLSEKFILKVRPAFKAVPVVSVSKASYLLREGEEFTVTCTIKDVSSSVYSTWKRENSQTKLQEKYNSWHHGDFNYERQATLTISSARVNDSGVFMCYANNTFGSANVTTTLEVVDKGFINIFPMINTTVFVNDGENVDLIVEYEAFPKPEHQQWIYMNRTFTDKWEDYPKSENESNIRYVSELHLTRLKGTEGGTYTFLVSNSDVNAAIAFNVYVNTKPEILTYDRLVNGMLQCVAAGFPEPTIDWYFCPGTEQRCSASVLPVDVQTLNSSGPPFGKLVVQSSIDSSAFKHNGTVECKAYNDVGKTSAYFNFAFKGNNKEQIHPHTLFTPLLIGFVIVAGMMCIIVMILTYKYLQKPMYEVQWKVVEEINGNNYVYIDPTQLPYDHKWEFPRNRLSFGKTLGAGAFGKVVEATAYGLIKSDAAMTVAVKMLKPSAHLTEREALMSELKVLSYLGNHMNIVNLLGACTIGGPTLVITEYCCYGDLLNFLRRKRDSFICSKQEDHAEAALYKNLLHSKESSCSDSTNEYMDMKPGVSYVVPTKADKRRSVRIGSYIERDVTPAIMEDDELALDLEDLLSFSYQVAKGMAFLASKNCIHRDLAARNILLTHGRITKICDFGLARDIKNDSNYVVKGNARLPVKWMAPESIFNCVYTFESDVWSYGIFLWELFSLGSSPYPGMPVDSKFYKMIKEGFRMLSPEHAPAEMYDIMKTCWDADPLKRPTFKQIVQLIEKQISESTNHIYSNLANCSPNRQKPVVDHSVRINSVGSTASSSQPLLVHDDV
Chain of UniProt P52564 (whole entry, looked up): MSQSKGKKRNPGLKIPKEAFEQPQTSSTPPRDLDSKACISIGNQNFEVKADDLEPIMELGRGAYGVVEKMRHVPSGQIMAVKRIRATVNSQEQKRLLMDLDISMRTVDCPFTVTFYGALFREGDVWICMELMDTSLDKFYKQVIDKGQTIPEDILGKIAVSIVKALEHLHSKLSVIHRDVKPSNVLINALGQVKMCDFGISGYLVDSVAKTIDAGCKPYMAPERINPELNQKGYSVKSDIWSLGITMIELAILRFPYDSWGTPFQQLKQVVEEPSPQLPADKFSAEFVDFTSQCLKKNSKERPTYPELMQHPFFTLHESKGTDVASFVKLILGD
Chain of UniProt Q05655 (whole entry, looked up): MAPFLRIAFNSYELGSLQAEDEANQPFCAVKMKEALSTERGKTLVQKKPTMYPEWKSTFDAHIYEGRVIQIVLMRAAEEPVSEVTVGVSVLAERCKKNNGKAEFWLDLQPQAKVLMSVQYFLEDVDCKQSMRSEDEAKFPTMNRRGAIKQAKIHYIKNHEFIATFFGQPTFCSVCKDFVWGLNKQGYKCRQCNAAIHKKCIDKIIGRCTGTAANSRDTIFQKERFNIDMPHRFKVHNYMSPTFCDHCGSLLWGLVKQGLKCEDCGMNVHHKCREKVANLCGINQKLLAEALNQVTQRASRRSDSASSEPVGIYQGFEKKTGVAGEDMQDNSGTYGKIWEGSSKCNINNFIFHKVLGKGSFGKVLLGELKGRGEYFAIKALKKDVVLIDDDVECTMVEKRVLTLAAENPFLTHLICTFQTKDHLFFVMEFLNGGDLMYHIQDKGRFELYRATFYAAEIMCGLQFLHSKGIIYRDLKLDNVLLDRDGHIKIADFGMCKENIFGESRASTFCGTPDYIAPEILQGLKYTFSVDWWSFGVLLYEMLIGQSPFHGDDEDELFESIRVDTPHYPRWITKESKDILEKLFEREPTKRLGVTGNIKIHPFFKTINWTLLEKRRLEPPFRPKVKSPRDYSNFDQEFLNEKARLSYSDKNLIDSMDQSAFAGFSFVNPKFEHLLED
Chain of UniProt Q8NG66 (whole entry, looked up): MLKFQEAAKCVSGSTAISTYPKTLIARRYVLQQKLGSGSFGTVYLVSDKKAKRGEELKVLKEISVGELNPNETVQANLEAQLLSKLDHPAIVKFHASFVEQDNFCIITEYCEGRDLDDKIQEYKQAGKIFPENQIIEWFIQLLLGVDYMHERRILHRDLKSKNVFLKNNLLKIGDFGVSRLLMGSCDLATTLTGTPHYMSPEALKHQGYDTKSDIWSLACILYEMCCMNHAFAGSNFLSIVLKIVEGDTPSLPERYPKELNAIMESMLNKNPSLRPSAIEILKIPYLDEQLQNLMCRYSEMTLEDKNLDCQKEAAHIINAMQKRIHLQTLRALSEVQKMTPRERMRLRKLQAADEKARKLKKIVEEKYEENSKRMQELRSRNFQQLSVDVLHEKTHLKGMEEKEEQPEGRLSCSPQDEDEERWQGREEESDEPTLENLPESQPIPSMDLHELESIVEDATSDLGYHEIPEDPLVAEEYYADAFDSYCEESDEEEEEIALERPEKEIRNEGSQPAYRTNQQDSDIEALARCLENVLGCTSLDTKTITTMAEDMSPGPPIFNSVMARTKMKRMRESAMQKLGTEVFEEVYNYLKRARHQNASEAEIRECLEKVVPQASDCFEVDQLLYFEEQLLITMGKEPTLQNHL
Chain of UniProt P51812 (whole entry, looked up): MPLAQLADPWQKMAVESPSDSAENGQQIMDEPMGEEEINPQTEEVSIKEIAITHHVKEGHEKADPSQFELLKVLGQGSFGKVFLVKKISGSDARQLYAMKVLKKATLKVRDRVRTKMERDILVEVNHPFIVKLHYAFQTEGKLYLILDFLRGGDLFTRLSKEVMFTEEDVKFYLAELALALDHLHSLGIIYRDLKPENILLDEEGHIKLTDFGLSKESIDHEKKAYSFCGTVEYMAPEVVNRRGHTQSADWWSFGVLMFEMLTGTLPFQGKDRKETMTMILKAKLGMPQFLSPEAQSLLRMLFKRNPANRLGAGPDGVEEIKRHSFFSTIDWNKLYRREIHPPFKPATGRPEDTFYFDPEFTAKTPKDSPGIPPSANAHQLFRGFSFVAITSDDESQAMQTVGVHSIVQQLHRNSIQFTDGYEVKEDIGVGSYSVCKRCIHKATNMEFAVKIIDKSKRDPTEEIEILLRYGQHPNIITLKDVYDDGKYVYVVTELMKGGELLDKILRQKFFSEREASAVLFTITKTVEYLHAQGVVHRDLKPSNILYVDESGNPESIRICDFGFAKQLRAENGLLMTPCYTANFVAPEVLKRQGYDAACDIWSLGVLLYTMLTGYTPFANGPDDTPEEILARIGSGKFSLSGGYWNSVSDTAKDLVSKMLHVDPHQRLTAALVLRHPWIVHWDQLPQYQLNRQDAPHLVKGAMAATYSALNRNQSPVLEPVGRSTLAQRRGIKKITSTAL
Chain of UniProt P08581 (whole entry, looked up): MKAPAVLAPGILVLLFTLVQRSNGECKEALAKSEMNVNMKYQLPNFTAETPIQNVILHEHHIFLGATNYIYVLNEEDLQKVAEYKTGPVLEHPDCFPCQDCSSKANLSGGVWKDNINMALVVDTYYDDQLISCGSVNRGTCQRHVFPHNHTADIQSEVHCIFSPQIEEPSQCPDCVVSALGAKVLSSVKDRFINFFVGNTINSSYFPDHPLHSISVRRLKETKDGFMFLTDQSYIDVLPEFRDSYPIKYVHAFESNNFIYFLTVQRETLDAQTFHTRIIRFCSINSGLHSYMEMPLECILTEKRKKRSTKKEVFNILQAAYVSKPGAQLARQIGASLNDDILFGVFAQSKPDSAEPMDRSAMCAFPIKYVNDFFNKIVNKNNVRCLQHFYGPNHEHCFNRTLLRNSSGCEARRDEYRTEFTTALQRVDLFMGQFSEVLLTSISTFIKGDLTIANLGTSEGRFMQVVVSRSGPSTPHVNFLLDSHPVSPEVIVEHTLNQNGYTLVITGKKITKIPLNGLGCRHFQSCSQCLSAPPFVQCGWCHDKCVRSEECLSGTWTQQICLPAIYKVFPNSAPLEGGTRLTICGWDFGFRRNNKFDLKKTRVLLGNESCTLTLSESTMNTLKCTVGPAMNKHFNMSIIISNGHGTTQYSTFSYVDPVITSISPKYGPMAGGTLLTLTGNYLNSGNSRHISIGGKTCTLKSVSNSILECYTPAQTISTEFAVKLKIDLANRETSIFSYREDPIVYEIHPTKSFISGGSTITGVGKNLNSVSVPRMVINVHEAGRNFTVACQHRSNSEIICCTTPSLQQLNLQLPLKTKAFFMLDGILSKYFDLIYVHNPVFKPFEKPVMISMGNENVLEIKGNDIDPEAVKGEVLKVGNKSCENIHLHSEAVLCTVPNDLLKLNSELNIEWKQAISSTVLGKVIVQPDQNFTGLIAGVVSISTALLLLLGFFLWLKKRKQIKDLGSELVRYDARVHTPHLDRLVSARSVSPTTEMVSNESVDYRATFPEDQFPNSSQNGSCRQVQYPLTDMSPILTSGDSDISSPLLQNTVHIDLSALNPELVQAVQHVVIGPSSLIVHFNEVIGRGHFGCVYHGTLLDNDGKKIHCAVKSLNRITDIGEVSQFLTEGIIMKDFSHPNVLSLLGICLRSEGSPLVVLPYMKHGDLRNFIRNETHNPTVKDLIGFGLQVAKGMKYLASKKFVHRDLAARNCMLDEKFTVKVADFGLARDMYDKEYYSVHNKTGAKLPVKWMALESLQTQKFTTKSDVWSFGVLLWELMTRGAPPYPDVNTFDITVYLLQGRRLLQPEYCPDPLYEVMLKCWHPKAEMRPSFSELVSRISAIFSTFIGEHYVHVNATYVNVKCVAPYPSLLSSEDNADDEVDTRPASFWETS

Block 1 — observed: enzyme activity; action: inhibitor; concentration: 0.5 µM; relative to: control
SMILES: O=C1NC(=O)c2c1c1c3ccccc3[nH]c1c1[nH]c3cc(Br)ccc3c21
| target | remaining activity |
| --- | --- |
| NEK4 (Homo sapiens, UniProt P51957) | 89% |
| MAPK13 (Homo sapiens, UniProt O15264) | 99.1% |
| MAP2K6 (Homo sapiens, UniProt P52564) | 94.2% |
| PRKG1 (Homo sapiens, UniProt Q13976) | 76% |
| EPHA5 (Homo sapiens, UniProt P54756) | 90.5% |
| Cyclin-dependent kinase 9, with cyclin T1 (CDK9, Homo sapiens, UniProt P50750) | 87.5% |
| LRRK2 (Homo sapiens, UniProt Q5S007) | 49.8% |
| PRKCD (Homo sapiens, UniProt Q05655) | 99.1% |
| PLK2 (Homo sapiens, UniProt Q9NYY3) | 93.7% |
| LYN (Homo sapiens, UniProt P07948) | 93.2% |
| CSNK2A1 (Homo sapiens, UniProt P68400) | 93.1% |

Block 2 — observed: cell-free assay; method: competition with immobilised ligand; concentration: 1 µM
Structure (SMILES): Nc1cnc(N2CCc3cc(S(=O)(=O)Nc4c(F)cc(Cl)cc4F)cc(N4CCCC4=O)c32)nc1
| target | remaining binding |
| --- | --- |
| KIT (Homo sapiens, UniProt P10721, D816V) | 100% |
| MAP2K7 (Homo sapiens, UniProt O14733) | 100% |
| ERBB3 (Homo sapiens, UniProt P21860) | 100% |
| CDKL5 (Homo sapiens, UniProt O76039) | 88% |
| PIK3CD (Homo sapiens, UniProt O00329) | 88% |
| STK3 (Homo sapiens, UniProt Q13188) | 96% |
| MET (Homo sapiens, UniProt P08581) | 69% |
| NEK11 (Homo sapiens, UniProt Q8NG66) | 100% |
| Ribosomal protein S6 kinase alpha-4, C-terminal kinase domain (RPS6KA4, Homo sapiens, UniProt O75676) | 96% |
| MAP4K5 (Homo sapiens, UniProt Q9Y4K4) | 73% |
| Ribosomal protein S6 kinase alpha-3, N-terminal kinase domain (RPS6KA3, Homo sapiens, UniProt P51812) | 100% |
| TNK2 (Homo sapiens, UniProt Q07912) | 91% |

Block 3 — cell line: mouse MPNST tumor cells; method: high-content nuclear imaging; measured: cell number; concentration: 10 µM; time: 12 h; notes: mean of 2 replicates; relative to: plate mean; reading: higher = more cells
| Compound | nuclei count |
| --- | --- |
| C#C[C@]1(OC(C)=O)CC[C@H]2[C@@H]3CCC4=C[C@@H](OC(C)=O)CC[C@@H]4[C@H]3CC[C@@]21C | 0.148 z-score |
| NC[C@H]1CC[C@H](C(=O)O)CC1 | 1.1 z-score and 1.48 z-score |
| N=C(N)SCCc1ccc(OCc2ccc([N+](=O)[O-])cc2)cc1 | -2.24 z-score |
| Cn1cnc2ncn(Cc3nc(CCc4ccc(Cl)cc4)no3)c(=O)c21 | 1.79 z-score |

Other studies, line by line
| SMILES | target | observed | method | cell line | endpoint | value |
| --- | --- | --- | --- | --- | --- | --- |
| CN1CCN(CCOc2cc(OC3CCOCC3)c3c(Nc4c(Cl)ccc5c4OCO5)ncnc3c2)CC1 | Activin receptor type-2B (ACVR2B, Homo sapiens, UniProt Q13705) | kinase-HSP90-CDC37 interaction | LUMIER | human cells | pEC50 | 5.28 |

Repeated from above (block 2):
| target | remaining binding |
| --- | --- |
| KIT (Homo sapiens, UniProt P10721, D816V) | 100% |
| MAP2K7 (Homo sapiens, UniProt O14733) | 100% |
